{"data": "Measurements pooled from the literature", "note": "Each line is one published result; not all experiments were run side by side. ± marks the error that the study gave."}
{"SMILES": "Nn1c(SCC(=O)Nc2cccc(Br)c2)nnc1-c1ccc(NC(=O)c2cccnc2)cc1", "cell line": "RAW264.7", "assay": "reactive oxygen species, inhibitor, fluorescence", "setting": "LPS-stimulated", "IC50": "9.77 µM"}
{"SMILES": "C[C@H]1[C@@H](O)O[C@@H]2O[C@@]3(C)CC[C@H]4[C@H](C)CC[C@@H]1[C@@]24OO3", "cell line": "MCF7/ADR multidrug-resistant", "assay": "cell growth, MTT", "setting": "24 h", "IC50": "14.8 µM"}
{"SMILES": "Cc1ncsc1-c1ccc(CNC(=O)[C@@H]2C[C@H](O)CN2C(=O)[C@@H](NC(=O)C2(F)CC2)C(C)(C)C)c(OCCOc2ccc(CN3CCN(c4cc(-c5ccccc5O)nnc4N)CC3)cc2)c1", "cell line": "NCI-H1568 SMARCA4-deficient", "assay": "cell growth, CellTiter-Glo", "setting": "168 h", "IC50": "0.441 µM"}
{"SMILES": "CCN1C(=O)C(n2nc(-c3c(O)c4ccccc4oc3=O)cc2-c2ccc(F)cc2)c2ccccc21 (centres unmarked)", "cell line": "A-375", "assay": "cell growth or viability, SRB", "setting": "72 h", "IC50": "79.5 µM"}
{"SMILES": "O=C(O)Cc1ccccc1Nc1c(Cl)cccc1Cl", "cell line": "RAW264.7", "assay": "TNF-α release, inhibitor, ELISA", "setting": "LPS-stimulated", "IC50": "7.46 µM"}
{"SMILES": "CN1CCN(c2ccc3nc(-c4c(N)c5c(F)cccc5[nH]c4=O)[nH]c3c2)CC1", "cell line": "HeLa 229", "assay": "cell growth or viability, MTT", "setting": "72 h", "IC50": "> 50 µM"}
{"SMILES": "Cc1cc(C#Cc2cccc(-c3nn(-c4nc(C(=O)O)cs4)c(CCC4CC4)c3Cc3ccc(S(N)(=O)=O)c(F)c3)c2)cs1", "cell line": "MIA PaCa-2", "assay": "cell growth or viability", "setting": "48 h", "IC50": "0.223 µM"}
{"SMILES": "CC(C=NN=C(N)[S-])=NN=C(N)[S-].N.N.O=[N+]([O-])[O-].[Co+3]", "cell line": "A549", "assay": "cell viability, MTT", "setting": "24 h then 48 h recovery, normoxia", "IC50": "~16.9 µM"}
{"SMILES": "COc1cc(/C=C/c2ccc(O)cc2)cc(OC)c1", "cell line": "HL-60", "assay": "reactive oxygen species, inhibitor, fluorescence", "IC50": "0.3 µg/mL"}
{"SMILES": "COc1ccc2c(c1)c(CC(=O)OC[C@@H](O)COP(=O)([O-])OCC[N+](C)(C)C)c(C)n2C(=O)c1ccc(Cl)cc1", "cell line": "MCF-10A", "assay": "cell growth or viability, SRB", "setting": "72 h", "IC50": "6.9 µM"}
{"SMILES": "Cc1ccc(-c2cc(C(F)(F)F)nn2-c2ccc(S(N)(=O)=O)cc2)cc1", "cell line": "RAW264.7", "assay": "reactive oxygen species, inhibitor, fluorescence", "setting": "LPS-stimulated", "IC50": "14.3 µM"}
{"SMILES": "CC1(C)CCCC(C)(C2CCC3(C)C2C(O)CC2C4(C)CCC(O)C(C)(C)C4C(OC(=O)NC4CCCCC4)CC23C)O1 (centres unmarked)", "cell line": "Hep3B", "assay": "HRE reporter gene, inhibitor", "setting": "24 h, hypoxia", "IC50": "1.08 µM"}
{"SMILES": "CC(=O)OC[C@H]1O[C@@H]([S-])[C@H](OC(C)=O)[C@@H](OC(C)=O)[C@@H]1OC(C)=O.CCP(CC)CC.[Au+]", "cell line": "GIST882", "assay": "cell growth or viability", "setting": "72 h", "IC50": "0.64 µM"}
{"SMILES": "CC(C)N(C(=S)[S][Sn]([S]C(=S)N(C(C)C)C(C)C)([c]1ccccc1)[c]1ccccc1)C(C)C", "cell line": "WIL2-NS", "assay": "cell growth or viability, MTT", "IC50": "2.6 µM"}
{"SMILES": "CC(C)C[C@H]1NC(=O)[C@H](CC(=O)O)NC(=O)CNC(=O)[C@H](CCCNC(=N)N)NC(=O)[C@H](C)NC1=O", "cell line": "WM-115", "assay": "WM-115 cell adhesion, inhibitor", "setting": "1 h, added: immobilized CagL^E87A", "IC50": "0.67 µM"}
{"SMILES": "COc1cccc(/C=C/c2nc3ccccc3[nH]c2=O)c1OC", "cell line": "HeLa 229", "assay": "cell growth or viability, MTT", "setting": "72 h", "IC50": "25.3 µM"}
{"SMILES": "CCCNC(=O)Nc1ccc(S(=O)(=O)Oc2cccnc2C)cc1", "cell line": "MOLM-13", "assay": "cell growth or viability, MTT", "setting": "48 h", "IC50": "13 µM"}
{"SMILES": "CCN1C(=O)C(n2nc(-c3c(O)c4ccccc4oc3=O)cc2-c2ccc(Br)cc2)c2cc(Cl)ccc21 (centres unmarked)", "cell line": "A-375", "assay": "cell growth or viability, SRB", "setting": "72 h", "IC50": "8.99 µM"}
{"SMILES": "CC1(C)Cc2c(-c3ccccc3)c(-c3ccc(Cl)cc3)c(CC(=O)O)n2C1", "cell line": "Apc10.1 cells overexpressing Has2", "assay": "cell proliferation, MTS", "IC50": "86 ± 7.2 µM"}
{"SMILES": "O=C1C(=Cc2ccccc2)CN(C(=O)c2ccccc2C(=O)N2CC(=Cc3ccccc3)C(=O)C(=Cc3ccccc3)C2)CC1=Cc1ccccc1", "cell line": "Molt4/C8", "assay": "cell growth or viability", "IC50": "0.85 µM"}
{"SMILES": "O=C1Nc2ccc(OC(F)(F)F)cc2C1n1nc(-c2c(O)c3ccccc3oc2=O)cc1-c1ccc(Cl)cc1 (centres unmarked)", "cell line": "A-375", "assay": "cell growth or viability, SRB", "setting": "72 h", "IC50": "4.17 µM"}
{"SMILES": "O=c1c2ccccc2c(-c2nnc(SCNc3ccc(Cl)cc3)o2)nn1CNc1ccc(Cl)cc1", "cell line": "WI-38", "assay": "cell growth or viability, MTT", "setting": "48 h", "IC50": "51.4 µM"}
{"SMILES": "Oc1cccc(/C=C/c2ccccc2)c1", "cell line": "HL-60", "assay": "ROS generation, inhibitor, DCFH-DA", "setting": "added: PMA", "IC50": "> 25 µg/mL"}
{"note": "A few entries again:"}
{"SMILES": "COc1ccc2c(c1)c(CC(=O)OC[C@@H](O)COP(=O)([O-])OCC[N+](C)(C)C)c(C)n2C(=O)c1ccc(Cl)cc1", "cell line": "MCF-10A", "assay": "cell growth or viability, SRB", "setting": "72 h", "IC50": "6.9 µM"}
{"SMILES": "Cc1ccc(-c2cc(C(F)(F)F)nn2-c2ccc(S(N)(=O)=O)cc2)cc1", "cell line": "RAW264.7", "assay": "reactive oxygen species, inhibitor, fluorescence", "setting": "LPS-stimulated", "IC50": "14.3 µM"}
